{"data": "Measured values pooled from the literature", "note": "Each line is one published result; not all experiments were run side by side. ± gives the spread as reported."}
{"SMILES": "CCn1nc(C2CC2)cc1Nc1nc(C(=O)NCCCCCc2cccc3c2CN(C2CCC(=O)NC2=O)C3=O)nc2[nH]c3cc(-c4c(C)noc4C)c(OC)cc3c12 (stereo not shown)", "system": "female SCID C.B-17 mouse, RS4;11 xenograft, tumour", "setting": "intravenous, 5 mg/kg single, 1 h", "quantity": "concentration in tumour", "result": "136 ng/g"}
{"SMILES": "CC(=O)Nc1noc(C)n1", "test": "HPLC-MS", "system": "C57BL/6 mouse, male, brain", "setting": "oral, 60 mg/kg, 45 min", "quantity": "concentration", "result": "4000 to 9970 ng/g"}
{"SMILES": "S=C(NCCc1nc(-c2ccccc2)cs1)N1CCCCC1", "system": "mouse, plasma", "setting": "intraperitoneal, 5 mg/kg, 1 h", "quantity": "concentration", "result": "2 ± 0.885 µM"}
{"SMILES": "COC(=O)C[C@](O)(CCCC(C)(C)O)C(=O)O[C@@H]1C(OC)=C[C@]23CCCN2CCc2cc4c(cc2[C@H]13)OCO4", "system": "CD1 mouse, esophagus", "setting": "subcutaneous, 1 mg/kg, 24 h", "quantity": "concentration", "result": "not detected"}
{"SMILES": "Cc1nc(Nc2ncc(C(=O)Nc3c(C)cccc3Cl)s2)cc(N2CCN(CCO)CC2)n1", "system": "C57BL/6 mouse, male, wild type, spleen", "setting": "oral, 10 mg/kg, 5 min", "quantity": "concentration", "result": "46.5 ± 11.8 ng/g"}
{"SMILES": "COc1ccc(S(=O)(=O)Nc2nc(-c3cccc([N+](=O)[O-])c3)c(CN3CCCCC3)s2)cc1OC", "system": "mouse wild type, plasma", "setting": "oral, 300 mg/kg, 5 h", "quantity": "concentration", "result": "40 µM"}
{"SMILES": "NC(=O)N1c2ccccc2C[C@H](O)c2ccccc21", "system": "mouse (NMRI), brain organic phase", "setting": "oral, 50 mg/kg eslicarbazepine acetate, 60 min, organic phase 20% of brain", "quantity": "concentration", "result": "102 µM"}
{"SMILES": "CC(C)n1ncc2c(C(=O)NCC3(C)CNC3)cc(C3CC3)nc21", "system": "Swiss Webster mouse pups, uninfected, spinal cord", "setting": "intraperitoneal, 50 mg/kg, 1 h", "quantity": "concentration", "result": "575 ± 100 ng/g"}
{"SMILES": "Cc1cc(-c2cc(OC(=O)c3ccccc3)ccc2Cl)cc2nnc(Nc3ccc(OCCN4CCCC4)cc3)nc12", "system": "C57BL/6 mouse, sclera/choroid", "setting": "topical, 1%, 24 h", "quantity": "concentration", "result": "0.026 µM"}
{"SMILES": "CSc1cc(C)nc(SC)c1NC(=O)CN1CCN(CCSc2nc3ccccc3[nH]2)CC1", "system": "mouse Crl:CD1 (ICR) female, cerebrum", "setting": "intranasal repeated, 162 µg in 7 N HCl, 45 min, 7 days dosing", "quantity": "concentration", "result": "12 ng/g"}
{"note": "Some of these lines once more:"}
{"SMILES": "S=C(NCCc1nc(-c2ccccc2)cs1)N1CCCCC1", "system": "mouse, plasma", "setting": "intraperitoneal, 5 mg/kg, 1 h", "quantity": "concentration", "result": "2 ± 0.885 µM"}
